Measurements of several laboratories.
Protocols differ between the studies behind these lines. ± marks the error that the study gave.

Compound	test	test system	setting	scale	measurement	value
CCN(CC)c1ccc(/C=N/NC(=O)c2cc(Cl)cc(Cl)c2)c(O)c1		BALB/c mice, female, plasma	intraperitoneal, 50 nmol, cassette dosing		plasma half-life	10.6 h
COc1cccc(OCCN2CCC[C@H](CN3CCc4cc(OC)c(OC)cc4CC3=O)C2)c1		C57BL/6 mice, plasma	intraperitoneal, 20 mg/kg, 15 min	reference: compound over cilobradine	plasma concentration ratio	< 1
CC(C)CCN(c1nc(C#N)nc(NC2COC2)n1)C(C)c1ccc(F)cc1 (centres unmarked)		female CD-1 mice	intraperitoneal, 10 mg/kg, 2 h		plasma concentration	57.7 ng/mL
O=[N][Fe]1([N]=O)[S](CCO)[Fe]([N]=O)([N]=O)[S]1CCO		C57BL/6JNarl mice, plasma	oral, 13.25 mg/kg		plasma half-life	0.9 ± 0.2 h
COc1ccc(OC)c(C(=Cc2ccc(O)c(OC)c2)C(=O)NCCc2ccc(O)cc2)c1		C57BL mice, MPTP/p Parkinson model, plasma	oral, 75 mg/kg, 8 weeks	reference: normal mice	plasma concentration	no effect
Cn1cc2cc1C(=O)NCCCC(=O)Nc1cn(C)c(n1)C(=O)Nc1cn(C)c(n1)C(=O)Nc1cc(n(C)c1)C(=O)Nc1cc(n(C)c1)C(=O)NC[C@H](N)CC(=O)Nc1cc(n(C)c1)C(=O)Nc1cc(n(C)c1)C(=O)Nc1cc(n(C)c1)C(=O)N2	HPLC	C57BL/6 mice, pooled plasma	intraperitoneal, 120 nmol/animal, 1.5 h		plasma concentration	3.9 µM
CC(NCCc1nsc2ccccc12)c1cccc2c1OCO2 (centres unmarked)		CD-1 mice, male	subcutaneous, 3 mg/kg, 60 min		plasma concentration	100 ng/mL
Cc1cc(NC(=O)[C@H](O)c2cc(F)cc(F)c2)ccc1-c1cnc(N)c(C(=O)NC(C)C)c1		female athymic nude mice, plasma	oral, 100 mg/kg single, up to 12 h		plasma concentration	> 3220 ng/mL
COc1ccc(OC)c(/C(=C\c2ccc(O)c(O)c2)C(=O)NCCc2ccc(O)cc2)c1		KM mice, plasma	oral, 50 mg/kg		plasma concentration	1 to 2 ng/mL
N#Cc1nc(N2CCOCC2)nc(N(Cc2ccc(F)cc2)CC2CCCNC2)n1 (centres unmarked)		female CD-1 mice	intraperitoneal, 10 mg/kg, 2 h		plasma concentration	200 ng/mL
CN(CCCNC(=O)c1cccc(C(=O)O)c1)CCCNC(=O)c1cc(NC(=O)c2cc(NC(=O)c3cc(NC(=O)c4cc(NC(=O)[C@H](N)CCNC(=O)c5cc(NC(=O)c6cc(NC(=O)c7nc(NC(=O)c8nccn8C)cn7C)cn6C)cn5C)cn4C)cn3C)cn2C)cn1C	HPLC	C57BL/6 mice, plasma	intraperitoneal, 120 nmol/animal, 24 h		plasma concentration	not detected
